{"data": "Assay results from different studies", "note": "Lines come from different studies, so protocols differ. ± gives the spread as reported.", "UniProt P48730, sequence (whole entry, looked up)": "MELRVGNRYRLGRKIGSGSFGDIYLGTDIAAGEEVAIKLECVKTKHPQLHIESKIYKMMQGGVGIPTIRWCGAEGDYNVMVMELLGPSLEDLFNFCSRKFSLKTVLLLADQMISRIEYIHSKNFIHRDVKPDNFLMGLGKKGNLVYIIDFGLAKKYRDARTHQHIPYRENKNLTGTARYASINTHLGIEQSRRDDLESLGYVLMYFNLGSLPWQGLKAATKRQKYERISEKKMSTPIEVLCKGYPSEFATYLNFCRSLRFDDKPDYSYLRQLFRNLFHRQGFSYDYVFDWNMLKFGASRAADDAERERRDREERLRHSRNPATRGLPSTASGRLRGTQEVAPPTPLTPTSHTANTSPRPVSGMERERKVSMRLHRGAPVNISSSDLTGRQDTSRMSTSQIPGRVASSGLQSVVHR"}
{"Structure (SMILES)": "O=C(Nc1cc(-c2ccc(Cl)cc2)[nH]n1)C1CCCCC1", "target or system": "CSNK1D (Homo sapiens, UniProt P48730)", "assay": "enzyme activity, Dundee kinase panel", "conditions": "10 µM", "measurement": "remaining activity", "value": "87%"}
{"Structure (SMILES)": "O=C(NCc1ccccc1)c1cn(Cc2ccc(C(F)(F)F)cc2)c2ccc(Oc3ccccc3)cc2c1=O", "target or system": "MDA-MB-231/LM2-4, MCF10A", "assay": "cytotoxicity", "conditions": "72 h", "how to read": "relative to: CC50 MCF10A over CC50 MDA-MB-231/LM2-4", "measurement": "selectivity ratio", "value": 1.6}
{"Structure (SMILES)": "CCOc1c([C@H](C)n2nc(C)c3c(N)ncnc32)cc(Cl)c(F)c1[C@@H]1CNC(=O)C1", "system": "patients, monotherapy", "conditions": "oral, 30 mg once daily, cycle 1 day 15", "measurement": "half-life geometric mean", "value": "8 h"}
{"Structure (SMILES)": "COc1cc(/C=N/NC(=S)N/N=C/c2ccc(N(C)C)cc2)ccc1Oc1ccnc2cc(Cl)ccc12", "target or system": "human lysosomal acid alpha-glucosidase", "assay": "inhibitor", "conditions": "added: pNPG substrate", "measurement": "IC50", "value": "12.7 ± 0.25 µg/mL"}
{"Structure (SMILES)": "COc1ccc(NC(=O)Cn2cc(COc3ccc(-c4nc5ccccc5c(=O)n4Nc4ccc([N+](=O)[O-])cc4[N+](=O)[O-])cc3OC)nn2)cc1", "target or system": "mushroom tyrosinase", "assay": "enzyme activity", "conditions": "40 µM, added: L-DOPA", "measurement": "inhibition", "value": "27.8 ± 2.45%"}
{"Structure (SMILES)": "COc1ccc(N=Nc2c(N)nn3c(-c4ccco4)cc(-c4ccc(OCc5ccccc5)cc4)nc23)cc1", "target or system": "Enterococcus faecalis", "assay": "broth microdilution", "system": "MTCC 0459", "measurement": "MIC", "value": "31.3 µg/mL"}
{"Structure (SMILES)": "COc1cc(-c2nc3ccccc3c(=O)n2Nc2ccc([N+](=O)[O-])cc2[N+](=O)[O-])ccc1OCc1cn(CC(=O)Nc2cccc(Cl)c2)nn1", "target or system": "mushroom tyrosinase", "assay": "enzyme activity", "conditions": "40 µM, added: L-DOPA", "measurement": "inhibition", "value": "57.9 ± 3.6%"}
{"Structure (SMILES)": "Cc1ccc(N=Nc2c(N)nn3c(-c4ccc(Cl)cc4Cl)cc(-c4ccc(OCc5ccccc5)cc4)nc23)cc1", "target or system": "Enterobacter cloacae", "system": "ATCC 23355", "measurement": "MBC/MIC ratio", "value": 2}
{"Structure (SMILES)": "COc1cc(/C=N/NC(=S)NN=Cc2ccc(CO)o2)ccc1Oc1ccnc2cc(Cl)ccc12", "target or system": "human lysosomal acid alpha-glucosidase", "assay": "inhibitor", "conditions": "added: pNPG substrate", "measurement": "IC50", "value": "13.7 ± 0.17 µg/mL"}
{"note": "Excerpt of the above:"}
{"Structure (SMILES)": "Cc1ccc(N=Nc2c(N)nn3c(-c4ccc(Cl)cc4Cl)cc(-c4ccc(OCc5ccccc5)cc4)nc23)cc1", "target or system": "Enterobacter cloacae", "system": "ATCC 23355", "measurement": "MBC/MIC ratio", "value": 2}
